Published values collected from several papers.
Every numbered part comes from another study and shows a few of its results, in no order. Positions count from the first letter of the parent shown.

Study 1
Target: CCNF, cyclin fold, Cln2 fusion (human)
Technique: yeast growth competition, sequencing
Matrix: yeast
Notes: weak parent motif
Relative to: not given
Direction: higher = stronger binding
Starting sequence: MASTL docking peptide (human); PMIAKNLMCELDE
Change | normalised enrichment score
A4L | -0.403
I3N | -0.388
K5T | -0.4
L11N | -0.251
L7Q | 0.231
L7S | -0.319
C9M | -0.037
D12G | 0.303
L7W | -0.357
M2E | -0.123
L7D | -0.617
K5L | -0.0509
N6I | 0.358
N6S | -0.0246
K5C | -0.29
L7G | -0.73
L11K | -0.347
I3V | -0.0892

Study 2
Target: Fragile X messenger ribonucleoprotein 1, C-terminal low-complexity region (Fmr1, Mus musculus, UniProt P35922)
Technique: RNA Bind-n-Seq
Form: RNA
Matrix: in vitro
Tested at: 200 nM
Notes: whole 134-nt RNA, ends assumed
Together with: 150 mM KCl
Relative to: input library
Direction: higher = stronger binding
Shared flanks, not repeated: GGGAGUUCUACAGUCCGACGAUC … UGGAAUUCUCGGGUGUCAAGG
Oligonucleotide | log2 enrichment
ACCAUGCAGGUGGGCAUCUUUGGGAAAAAGGGCAAGGGGGGGAUAGGGAGGGGGGUAACACUUUGGGAACAGGUGGUCCCAGGUCGUUUC | 0.872
UGCUGGUGAGCUGCUGCCUGGCAGGCCACGUCUGCGUGUGGGACGCGCAGACCGGGGAUUGCCUAACGCGCAUUCCGCGCCCAGGGUAGG | -1.22
AGUCCUGUGCUACACAUCGUAUGUACCGAAUCGGUUUUUGGAAAAAGGAAAAAAAGGAAAGUAUUAUGUUACGCCGUUCGGAUCUGCACU | -0.976
CACAGACAACACGCACCCACACAGACACAGAGGGAAGGGGUUGGGAUGGGGACAGGGUGCACAGCAGGGCGGGGUAGGACCCCAGCCUCU | 1.15
UGUCCCUGGUGGCAUGCGGGGAGGAAGAGGUGGCCUCAUGGAUCGUGGUGGUCCCGGUGGAAUGUUCAGAGGUGGCCGUGGUGGAGACAG | -0.122
CUGUGCUACACAUCGUAUGUACCGAAUCAAAUUUUUUUAAACCCCCCCAAACCCCCCCAAAAAAGUAUUAUGUUACGCCGUUCGGAUCUG | -0.683
UCAAGUCCUGUGCUACACAUCGUAUGUACCGAAUCGGUUUUUGGUUUUUGGUGGAAAGUAUUAUGUUACGCCGUUCGGAUCUGCACUUCC | -0.585
UCCUGUGCUACACAUCGUAUGUACCGAAUCGGGGAAAAAAAGGGGUUUUUGGGGAGGGGAAAGUAUUAUGUUACGCCGUUCGGAUCUGCA | 0.645
UGGCCCUGGUGGCAUGCGGGGAGGAAGAGGUGGCCUCAUGGAUCGUGGUGGUCCCGGGGGAAUGUUCAGAGGUGGCCGUGGUGGAGACAG | 0.348
AAGUCCUGUGCUACACAUCGUAUGUACCGAAUCGGGUUUUUGGGAAAAAGGGAGGGAAAGUAUUAUGUUACGCCGUUCGGAUCUGCACUU | 0.679
GUCCUGUGCUACACAUCGUAUGUACCGAAUCGGGCCCCCGGGCCCCCGGCCCCCGGGGAAAGUAUUAUGUUACGCCGUUCGGAUCUGCAC | -0.422
UGGGAGGUGGAUUUUGUUUAUUUUUUUAGCUCAUUUCCAGGGUUGGGAAUUUUUUUUUAAUAUGUGUCAUGAAUAAAGUUGUUUUUGAAA | -0.268
UAACUUUAGAGGAGGAUCUGAUGGAUAUGGCAGUGGACGUGGAUUUGGGGAUGGCUAUAAUGGGUAUGGAGGAGGACCUGGAGGUGCCAA | 0.181
CCUGUGCUACACAUCGUAUGUACCGAAUCGGGAAAAAAAGGGGAAAAAAAGGAAAAAAAGGAAAGUAUUAUGUUACGCCGUUCGGAUCUG | -0.843

Study 3
Target: RNA binding protein fox-1 homolog 2, RRM domain, GST-SBP tag (RBFOX2, Homo sapiens, UniProt O43251-10, residues 100-194)
Technique: RNA Bind-n-Seq
Form: RNA
Matrix: in vitro
Tested at: 365 nM
Notes: natural RNA segment, single round, ends assumed
Relative to: no-protein control
Direction: higher = stronger binding
Shared flanks, not repeated: GGGAGUUCUACAGUCCGACGAUC … UGGAAUUCUCGGGUGCCAA
Target sequence (chain): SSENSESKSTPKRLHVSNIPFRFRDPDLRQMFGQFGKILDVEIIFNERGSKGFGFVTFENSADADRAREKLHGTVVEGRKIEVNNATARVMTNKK
Oligonucleotide | RBNS enrichment (R)
GGUUUCUAAUAUGUAUGACCAAUGUAGCCAUUGCUUUGAAAUGUAAAUAUAAACACGUCCUAUCCGACUAUUGGCUUUGGGGUAUUUGUCGGGCUGGAGUCCUCACACAC | 0.535
CCUGUCCUAGGUCAUGAAGGACACUCUGCAGGGUGAAGCACCAGGGAGAGGCCUCGGCUGUCUCCUGUCCCCGGCGGGGUGCCUGCUGUCCGUCCCGCUUUCAUGUUACU | 8.14
UCAAAGUGGAGUAACGUGUAUUUUGAAAUGAUUUUGUGUUCUAUAUAGAAUGUCCCAGUUAAGAUUUUACAGAAGCACCUGGAAUAUCUCAUUAAAAAUUUAAAAACUCU | 1.05
GAGUGGGUCCGUCGUCCCCAACACUCGUGCUCGCUCAGACACUUUGGCAGGAUGUCUGGGGCCUCACCAGCAGGAGCGCGUGCAAGCCGGGCAGGCGGUCCACCUAGACC | 0.609
AUAAUACAGCAGGUAUAAUUACACCAAGCGCUAUAGUUAUAAAUAUGGCAUGAAGUGAACUAUGGCCUUUUAUUUCCUUCCAGUGUGAACACAGCAGGUGUGAGAUGUCA | 0.643
GGAGCCCGAUAAAGACUUUGCCUGGAUCUCCUAGGGGCUCUGCUCUAGUGGGCAGGGUGAGUGAUGGCUGAAUCGCUUUGUCCACCUGUGUGUGUGUCUUAGUGGAUCUU | 0.54
CACCGCUCCCUUGGACGGGCUGCGACCCGCCAUCCUGGGGGUCAACACAGGAGGACAGAAGAGAGUGGAGCACAGGACCAUAGGGGUUCCAGAAAACUGUCACAGAGCAC | 0.343
GUUUCUGGGGAAGCAAAGGAGCUUAGAGCAGCUGGUGUGCUCACCCCUCCCCAGACGCCUCCAUUAACCACAGACUAUGUAGCGCUGGCCCUAGCCUCUGGCAGAGCCUG | 0.334
UUUACUAGGCAAAUACACAUACUAUCUCACAUAGAUGAUUAUGAAACUGAAUGAAAACCUGUCAUGCGGGAUUAUUUUUGAAAAGCCUCCAUUUGUAUACAUUUGCCCAA | 0.889
GUGAGCCUCUUGCUAAGUGUCACACACACUCUUCCCAAAGACGUGAUGAGUUAAAGUUGUAUUCUGAAAUCAUGAAGCCAGAGCCUGUGCCAGACCUUCUGCUACCUCUC | 0.3
ACUUGUAUUGACCAAAGUUUUGCAGCUCUACUAUAUUCUGUGCUCAGGACUAAAAUGCUGUUAAUUUUUUUUUUUUUUUCCAGUGCUGUGCAUAUAUUCUGUGAUGGGAA | 0.812
UUAUCAUUUAUUUAUUGGUGCUACUGUUUAUCCGUAAUAAUUGUGGGGAAAAGAUAUUAACAUCACGUCUUUGUCUCUAGUGCAGUUUUUCGAGAUAUUCCGUAGUACAU | 0.445

Other studies, line by line
Substance | target | test | system | conditions | scale | endpoint | result
PhoQ, residues 284 288 289 292 302 303 TSTLRA | PhoP, residues 12 14 15 18 19 NQFFI (Escherichia coli, UniProt P23836) | Sort-seq, refers to: YFP reporter | E. coli | PhoQ-PhoP variant library, together with: 10 µM Mg2+ | relative to: high Mg2+ state, higher = stronger signaling | fold induction | 2.38

For quick reference, copied from above (study 1):
Change | normalised enrichment score
L11K | -0.347
D12G | 0.303
